Measured values collected from several papers.
Each numbered part is a random draw from the data of one study; scales do not carry over between parts.

Sample 1
Target: RNA binding protein fox-1 homolog 2, RRM domain, GST-SBP tag (RBFOX2, Homo sapiens, UniProt O43251-10, residues 100-194)
Method: RNA Bind-n-Seq
Form: RNA
Sample: in vitro
Tested at: 365 nM
Setting: natural RNA segment, single round, ends assumed
Relative to: no-protein control
Direction: higher = stronger binding
Endpoint: RBNS enrichment (R)
Constant ends, left off below: GGGAGUUCUACAGUCCGACGAUC … UGGAAUUCUCGGGUGCCAA
Residues (chain): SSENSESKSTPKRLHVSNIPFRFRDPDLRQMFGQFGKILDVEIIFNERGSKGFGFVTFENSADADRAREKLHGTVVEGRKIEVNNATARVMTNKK
CCCCUGCUCCUCUCCCAGAGGGCACUGCUUGGAAAUUGUGUUUUCCCCAUUUAUGGUGCUCUGUAUUCUGGCAUUAUGCAGCAGCCUCCCAGAAGCUCUCUUCUGCUUCA: 0.381
UCCUAAUAUUUAUAGCCAGCAGCUGUUACUUUGUUUGUAAAAUUUGCAAAAAAACAAAACCUGAAGUUGGUUUAUUGAAAGAAUUAUAAGGAUAGCUUCUAGGGAUAUUA: 0.953
GAAGAUUACCAAUGAUUUUGAGGCUUUUCUAUAAUAAAAAGAGGUUCUAACCAUUAUUUGGGAACAAAGAGAGUUUUCAUCUUUUUUCAGAUCAAAACCAUUCUGUAAAA: 0.312
GAUUCUACAUUUAUUUGUGGGUUUUUUUCCCCUCCUUUCUUUCCACAGCACUUUUGAUAUCAAGCAAGUGGCUUCCUUUUUGAGAUAUUAAAAAAAAAAAGAAAAGGAAA: 0.677
AGAAACACUGCCUUUUUAUUUAUAUGUAUUGUUUUCUAUGGCACUAGGGAAAAACAUAUCUGUUCCAAGAAAAUAAACUAGUUCUCAGAGCCUUGAUUUUCCUGGUCAGG: 0.931
AUUGUGAUAUUUUCUUAGUCUGUUCUGUUUUAUUUAAAAAAUAAAACUGCUGAUCAAGACAAGUGAAUGGAGUUUGUGAUCCAUUCAUGAGUUGCCACCCACAGUUUAGA: 0.375
UGCUGUUGCACACUGAUUGCUGAGGGUGCAUCAAUUACAAGCAUUGAAUACUCCAUCCCCUUCCCUCCCAGUGAAUGGAAUGAGAAAAGCCUUCUUCCUUUGCUUCAGGC: 2.18
AAGAUUUCUGUAUAAGACUGUUGAGCAGUUUUUAAAAUAGUGUAGGAUAAUAUAAAAAGCGGAUAGAUGGCGCUAUGUUUGAUUCCUACAACGAACCGAUCACCAGCUCC: 0.544
UCUGAUGGAUGUAGUUUUCUUUUUUUAAAUUAGAAAUGCCACUUCUAUUGUAUUGUCUCACACAUGCUCUAUAUAAAUGGGAAAUGUUGAUUUUUUUGAUGAUAGACUAU: 0.292
UGGGUUUGUUGUUUAACCUUAGCGAGAUCCUUUAACUGCAGCAAUAUUCAAGCCAGAUAUUUGGAAGCAAAUGAUAUUUCCUCUUGCAGUGUCCACAAAUCUGAAUAUUA: 0.678
AUUUCUGCUUCAGCCACCAAGCAGUUGUCUGUGUCCCUCAUCCAGAGGGGGCCUUGGCCACCAACAGUUCCAAACCAGGUCAGCUGUUAGCCGUCUCAUUGGCCAGUGGC: 0.767
UCAGAGGGGUGUAGGUUGCGAUCCUUGUCGCCUGAGGAGCCGGUGGACUGCUGAGCUAGUCCAGGGGUAGCCGGUCCCCUCAUGCAUCUGCUGCCUUAGCUUCUAGAACG: 0.352

Sample 2
Target: Histone acetyltransferase KAT6A, winged helix 1, GST fusion (KAT6A, Homo sapiens, UniProt Q92794, residues 1-85)
Method: protein binding microarray
Form: double-stranded DNA, one strand shown
Sample: in vitro
Tested at: not given
Setting: 8-mer, flanks averaged, mean of 2 arrays, mostly near background
Relative to: not given
Direction: higher = stronger binding
Endpoint: E-score
Residues (chain): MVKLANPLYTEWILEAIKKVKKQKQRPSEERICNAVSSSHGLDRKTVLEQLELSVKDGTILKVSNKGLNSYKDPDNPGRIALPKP
CTCACGAC: 0.0175
GAGAAAAC: -0.021
ACGGATAG: 0.169
CTGCCCAC: -0.232
AGCGAGGG: -0.0422
CTGAATTC: -0.273
AGTAGTAA: -0.0904
CCTTAGAC: -0.132
CAATATCC: 0.00458
AGGGTCTC: -0.0736
CGGGAGAA: 0.0703
AGAGAGCG: 0.163
AAGCGGCA: 0.364
ATCCACGC: 0.0987
TAACCTGA: -0.17
CAGCTAGA: -0.212

Sample 3
Target: Hepatocyte nuclear factor 3-alpha (Foxa1, Mus musculus, UniProt P35582, residues 1-468, full length assumed)
Method: EMSA with sequencing
Form: double-stranded DNA, one strand shown
Sample: in vitro
Tested at: 10 and 20 nM
Setting: whole designed probe, mean of two concentrations, ends assumed
Relative to: negative control set to 0
Direction: higher = stronger binding
Endpoint: normalised bound fraction
Constant ends, left off below: GTGAGCGGTGCCCATTGATGGGGAAC … TTTCACTGGGATCGTGGGGAC
Residues (chain): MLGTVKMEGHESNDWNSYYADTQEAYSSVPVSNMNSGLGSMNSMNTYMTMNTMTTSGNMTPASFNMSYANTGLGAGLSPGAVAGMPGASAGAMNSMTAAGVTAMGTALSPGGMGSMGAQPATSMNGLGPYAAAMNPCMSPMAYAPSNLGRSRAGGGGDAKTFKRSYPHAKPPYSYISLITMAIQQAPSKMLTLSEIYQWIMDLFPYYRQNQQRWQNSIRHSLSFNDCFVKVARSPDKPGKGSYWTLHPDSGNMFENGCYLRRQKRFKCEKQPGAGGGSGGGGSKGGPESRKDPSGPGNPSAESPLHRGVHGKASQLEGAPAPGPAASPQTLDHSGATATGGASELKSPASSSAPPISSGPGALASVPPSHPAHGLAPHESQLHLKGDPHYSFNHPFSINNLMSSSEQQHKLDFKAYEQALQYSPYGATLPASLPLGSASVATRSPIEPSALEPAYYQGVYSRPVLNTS
ATCTTCCCCCTCTTCCTTGCCCCACCAGCTCACCTACGGGGGTTATTTGCAGATAGGAAAATAAATAAAGCCGGCATTCGTTAACGCAGTTCACGCGCATACTGCTGTTTGCTCTGGATCTAACATGGTCCTTTGGCGACGCCAGGCTCCGGGAGAGCAAAGCACCGTGTCAGGGCCATGATCCGGGCTCGCC: 0.342 ratio
ATCTTCCCCCTCTTCCTTGCCCCACCAGCTCACCTTCCCGGGTTATTTGCAGATAGGAAAATAAATAAAGCCGGCATTCGTTAACGCAGTTCTGGCGCAAACTGCTGTTTGCTCTGCATCTAACATGGTCCTTACGCGACGCCAGGCTCCGGGAGAGCAAAGCACCGTGTCAGGCGCATGATCCGGGGTGGCC: 0.362 ratio
TAAAAAGCATTTAACCTAAGTACTGTTTTAGAGGTGACAAATTTAGTGGTGTGTCCCCATGAGAAAATATTTCAAACAATACCAAAATTCCTTGTTTACATATTACATCATCGTTCCTAGAAAATATATCTAAATCCTCTATTTTAGGTATAAAAGCAAAAAAAAGTAAGGTTTCAGTTGATTTCACTTAAAA: 0.295 ratio
ACCAGTGCTATCTTCTGCCAACACCAGTAACAGCAGGCAGTAGGACTCCCTGAATAAACATTTTGAAGGCAAAGGTAAAGAAGGGTGGAATAAGCAAATAAGAAGTCACCATTCCTCCTGGAGTAAACCATTCCCTCCTCTGATTGCCTGAAGCTAACCATGAGACAGCAGGACTGGCTACATAATTTTCCAG: 0.387 ratio
TGCTCTTACATATGAGTGATAATTGGGCTGGATATAGAATTCTAGGTTGGAAATATTTTTTCTTTAAAATGTTGAAGTCACTGTCCTGTTTTTAGATTGCTTTTTTGTGGGATTTTCTCCCTGTGTGCTATTGAGACTTCTGAATTCATTCTAATTCCTGACTGTGGCATGTGACTTGTTTTTCTCCTTCCCT: -0.0767 ratio
TCCCTTTGTTCTACTCCTATACTCAAGTAATTCTGGAACACAGGCCATTTCACAAAGATTCTCTTCCCTATACACCATATTTACCTTTATTTCTTGTTTACTTAGCAAGCTTCTACATATCATTTCAGGTTTAGTTCTAACAAGCCTTTTCTTATGAACCTTTGTTTGATCTTCCTCCCTCCATCCTCTCCTT: 0.556 ratio
ATCTTCCCCCTCTTCCTTGCCCCACCAGCTCACCTTCCCGGGTTATTTGCACAAAGGAAAATAAATAAAGCCGGCATTCGTTAACCCTCTTCACGCGCATACTGCTGTTTGCTCTGGATGAATCATGGTCCTTTGGCGACGCCAGGCTCCGGGAGAGCAAAGCACCGTGTCAGGGCCATGATCCGGGCTCGCC: 0.368 ratio
ATCTTCCCCCTCTTCCTTGCCCCACCAGCTCACCTTCCCGGGTTGTTTACTTTGAGCAAAGTAAACAAAGCCGGCATTCGTTAACCCTCTTCACGCGCATACTGCACATTGGTCTGGATCTAACATGGTCCTTTGGCGACGCCAGGCTCCGGGAGAGCAAAGCACCGTGTCAGGGCCATGATCCGGGGTGGCC: 0.538 ratio

Sample 4
Target: Interferon regulatory factor 7, full length, phosphomimetic (IRF7, Homo sapiens, UniProt Q92985, residues 1-503, S471D/S472D/S475D/S476D/S477D/S483D/S484D/S487D)
UniProt Q92985, sequence (whole entry, unmodified, looked up): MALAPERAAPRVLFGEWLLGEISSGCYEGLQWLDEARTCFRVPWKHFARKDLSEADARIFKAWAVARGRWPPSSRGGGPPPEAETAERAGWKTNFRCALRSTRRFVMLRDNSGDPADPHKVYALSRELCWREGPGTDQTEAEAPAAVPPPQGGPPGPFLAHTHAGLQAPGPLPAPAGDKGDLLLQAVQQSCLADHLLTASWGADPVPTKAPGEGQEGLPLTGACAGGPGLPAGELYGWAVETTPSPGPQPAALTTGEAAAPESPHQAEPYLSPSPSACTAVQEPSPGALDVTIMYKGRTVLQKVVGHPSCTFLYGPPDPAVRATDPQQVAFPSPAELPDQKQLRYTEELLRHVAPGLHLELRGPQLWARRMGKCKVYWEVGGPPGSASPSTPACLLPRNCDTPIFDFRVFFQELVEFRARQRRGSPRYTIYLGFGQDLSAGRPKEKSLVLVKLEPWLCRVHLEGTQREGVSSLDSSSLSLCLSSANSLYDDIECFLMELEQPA
Method: protein-binding microarray
Form: double-stranded DNA, one strand shown
Sample: in vitro
Tested at: 2200 nM top
Setting: 60-bp whole probe
Added: salmon DNA 0.4 mg/ml
Relative to: random background probes
Direction: higher = stronger binding
Endpoint: fitted relative affinity
Constant ends, left off below: GCCTAGCAC … GTCTTGATTCGCTTGACGCTGCTG
GACGATATTAGTATCGAGACGTGCTAG: 0.158 z-score
TTAGATCACAGTATCGATTAGTGCTAG: 0.194 z-score
GTGGCTCACACCTGTCATCCCGTGCTA: 0.377 z-score
TTAGGTTTCGGGTATCGGTCAGTGCTA: 6.07 z-score
TTACGACTGGACTATCGGTTAGTGCTA: 0.573 z-score
GAGGGTATCCTTATCCTGACGTGCTAG: 0.25 z-score
GACGAACAGAGACTGGAGACGTGCTAG: -0.348 z-score
GACGGTCACCTACTGCTGACGTGCTAG: 0.00575 z-score
GACGGACTGCCACTGCTGACGTGCTAG: -0.358 z-score
TTAGGACTGGGTCTCGGATAGTGCTAG: -0.404 z-score
TTAAGTCTCCTTTTCCTTTAGTGCTAG: 2.26 z-score
TTAGAACTGGCGTATCGATTAGTGCTA: -0.771 z-score
TAAGGTTTCGACACTGGGTTAGTGCTA: 1.96 z-score
TTAGAACTGAGACTGGATTCGTGCTAG: -0.0782 z-score
TTAGGTTTCATTTCCCTTTAGTGCTAG: 5.02 z-score
TTAGATCTGGGGTATCGATTAGTGCTA: 0.119 z-score
TCACCTATAGGTTTCTAACTGTGCTAG: 1.01 z-score
TTAGAAATGAGTATCGATTAGTGCTAG: -0.631 z-score
GACCAGGGGCCACAGCCTCAGTGCTAG: -1.83 z-score
GACGGACTGGGTATCGGTACGTGCTAG: -0.363 z-score
TCAGTTTTGAGTTTTCCACTGTGCTAG: 2.46 z-score
TCATCGTAAGCAAAAATACTGTGCTAG: -0.19 z-score
GACGGTCTCGGTATCTGGACGTGCTAG: 0.518 z-score
GACGGTCTCGGACTGGGTACGTGCTAG: -0.526 z-score
GACGGTATCGACTGTCGGGACGTGCTA: -0.516 z-score

Repeated from above (sample 1):
UGCUGUUGCACACUGAUUGCUGAGGGUGCAUCAAUUACAAGCAUUGAAUACUCCAUCCCCUUCCCUCCCAGUGAAUGGAAUGAGAAAAGCCUUCUUCCUUUGCUUCAGGC: 2.18
AUUUCUGCUUCAGCCACCAAGCAGUUGUCUGUGUCCCUCAUCCAGAGGGGGCCUUGGCCACCAACAGUUCCAAACCAGGUCAGCUGUUAGCCGUCUCAUUGGCCAGUGGC: 0.767
UCUGAUGGAUGUAGUUUUCUUUUUUUAAAUUAGAAAUGCCACUUCUAUUGUAUUGUCUCACACAUGCUCUAUAUAAAUGGGAAAUGUUGAUUUUUUUGAUGAUAGACUAU: 0.292
UGGGUUUGUUGUUUAACCUUAGCGAGAUCCUUUAACUGCAGCAAUAUUCAAGCCAGAUAUUUGGAAGCAAAUGAUAUUUCCUCUUGCAGUGUCCACAAAUCUGAAUAUUA: 0.678
UCAGAGGGGUGUAGGUUGCGAUCCUUGUCGCCUGAGGAGCCGGUGGACUGCUGAGCUAGUCCAGGGGUAGCCGGUCCCCUCAUGCAUCUGCUGCCUUAGCUUCUAGAACG: 0.352
GAUUCUACAUUUAUUUGUGGGUUUUUUUCCCCUCCUUUCUUUCCACAGCACUUUUGAUAUCAAGCAAGUGGCUUCCUUUUUGAGAUAUUAAAAAAAAAAAGAAAAGGAAA: 0.677
CCCCUGCUCCUCUCCCAGAGGGCACUGCUUGGAAAUUGUGUUUUCCCCAUUUAUGGUGCUCUGUAUUCUGGCAUUAUGCAGCAGCCUCCCAGAAGCUCUCUUCUGCUUCA: 0.381
GAAGAUUACCAAUGAUUUUGAGGCUUUUCUAUAAUAAAAAGAGGUUCUAACCAUUAUUUGGGAACAAAGAGAGUUUUCAUCUUUUUUCAGAUCAAAACCAUUCUGUAAAA: 0.312
